Results collected from several papers.
Compare with care: the assays were run in different laboratories. ± marks the error that the study gave.
KCNH2: Voltage-gated inwardly rectifying potassium channel KCNH2 (KCNH2, Homo sapiens, UniProt Q12809)
Sequence of UniProt Q12809 (whole entry, looked up): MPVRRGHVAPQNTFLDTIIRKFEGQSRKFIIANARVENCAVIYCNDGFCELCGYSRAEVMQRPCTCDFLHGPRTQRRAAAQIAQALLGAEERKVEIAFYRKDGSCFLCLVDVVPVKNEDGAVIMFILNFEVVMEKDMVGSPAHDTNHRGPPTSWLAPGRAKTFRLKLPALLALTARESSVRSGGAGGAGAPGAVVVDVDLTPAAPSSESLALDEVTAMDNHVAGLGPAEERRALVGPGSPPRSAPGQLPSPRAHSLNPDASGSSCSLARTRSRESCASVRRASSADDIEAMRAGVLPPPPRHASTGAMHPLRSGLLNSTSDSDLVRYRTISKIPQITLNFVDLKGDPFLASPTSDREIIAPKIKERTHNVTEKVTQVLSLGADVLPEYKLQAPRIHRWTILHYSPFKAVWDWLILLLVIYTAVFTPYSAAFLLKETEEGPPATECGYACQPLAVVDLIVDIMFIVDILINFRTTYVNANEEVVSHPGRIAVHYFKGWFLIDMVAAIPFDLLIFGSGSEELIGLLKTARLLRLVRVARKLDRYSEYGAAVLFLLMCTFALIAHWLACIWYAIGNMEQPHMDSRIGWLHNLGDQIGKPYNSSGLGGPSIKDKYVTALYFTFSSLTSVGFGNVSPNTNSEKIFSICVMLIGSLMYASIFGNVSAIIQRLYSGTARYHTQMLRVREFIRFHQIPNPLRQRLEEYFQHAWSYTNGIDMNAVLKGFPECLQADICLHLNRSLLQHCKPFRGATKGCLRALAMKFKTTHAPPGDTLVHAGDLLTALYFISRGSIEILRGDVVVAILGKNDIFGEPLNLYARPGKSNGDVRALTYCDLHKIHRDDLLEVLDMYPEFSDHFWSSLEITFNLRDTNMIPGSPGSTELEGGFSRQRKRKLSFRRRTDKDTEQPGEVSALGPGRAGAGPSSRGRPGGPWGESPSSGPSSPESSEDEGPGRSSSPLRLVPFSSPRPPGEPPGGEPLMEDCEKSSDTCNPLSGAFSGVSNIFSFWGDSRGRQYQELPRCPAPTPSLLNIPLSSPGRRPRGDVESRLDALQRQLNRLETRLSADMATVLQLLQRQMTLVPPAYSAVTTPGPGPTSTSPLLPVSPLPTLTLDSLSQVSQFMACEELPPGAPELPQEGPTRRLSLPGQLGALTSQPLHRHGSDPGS
CYP27A1: Sterol 26-hydroxylase, mitochondrial (CYP27A1, Homo sapiens, UniProt Q02318)
Sequence of UniProt Q02318 (whole entry, looked up): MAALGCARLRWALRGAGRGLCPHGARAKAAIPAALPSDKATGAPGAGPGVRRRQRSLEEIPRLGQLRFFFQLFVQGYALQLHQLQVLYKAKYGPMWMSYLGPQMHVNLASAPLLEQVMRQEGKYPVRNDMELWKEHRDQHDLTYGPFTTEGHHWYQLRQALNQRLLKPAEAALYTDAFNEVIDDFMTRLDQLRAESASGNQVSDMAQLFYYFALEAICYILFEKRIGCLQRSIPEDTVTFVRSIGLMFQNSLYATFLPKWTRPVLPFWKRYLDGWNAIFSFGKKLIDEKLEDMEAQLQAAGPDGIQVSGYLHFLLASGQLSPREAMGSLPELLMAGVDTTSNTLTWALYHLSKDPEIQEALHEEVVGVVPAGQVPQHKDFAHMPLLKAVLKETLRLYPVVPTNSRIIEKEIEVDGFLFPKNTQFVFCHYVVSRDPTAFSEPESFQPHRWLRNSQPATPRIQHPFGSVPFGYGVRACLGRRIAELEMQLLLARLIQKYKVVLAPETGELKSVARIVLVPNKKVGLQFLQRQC
MMP2: 72 kDa type IV collagenase (MMP2, Homo sapiens, UniProt P08253)
Sequence of UniProt P08253 (whole entry, looked up): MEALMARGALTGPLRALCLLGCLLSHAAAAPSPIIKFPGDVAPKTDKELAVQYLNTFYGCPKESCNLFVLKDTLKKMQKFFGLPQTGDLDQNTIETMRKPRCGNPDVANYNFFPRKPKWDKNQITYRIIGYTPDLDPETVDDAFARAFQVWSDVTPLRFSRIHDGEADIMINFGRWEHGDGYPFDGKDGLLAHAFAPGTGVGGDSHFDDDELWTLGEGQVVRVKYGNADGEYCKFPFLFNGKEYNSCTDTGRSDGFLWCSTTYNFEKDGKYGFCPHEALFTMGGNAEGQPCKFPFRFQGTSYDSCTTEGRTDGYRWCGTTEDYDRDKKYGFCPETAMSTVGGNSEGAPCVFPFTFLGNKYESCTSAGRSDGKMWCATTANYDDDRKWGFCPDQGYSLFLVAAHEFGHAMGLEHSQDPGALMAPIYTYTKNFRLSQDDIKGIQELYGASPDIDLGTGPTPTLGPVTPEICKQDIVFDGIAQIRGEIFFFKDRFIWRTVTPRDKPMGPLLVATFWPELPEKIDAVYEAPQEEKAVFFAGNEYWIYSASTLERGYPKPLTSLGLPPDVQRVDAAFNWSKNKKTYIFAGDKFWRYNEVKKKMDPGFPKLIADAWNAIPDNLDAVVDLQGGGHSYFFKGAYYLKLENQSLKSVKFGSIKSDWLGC
Sequence of UniProt P00760 (whole entry, looked up): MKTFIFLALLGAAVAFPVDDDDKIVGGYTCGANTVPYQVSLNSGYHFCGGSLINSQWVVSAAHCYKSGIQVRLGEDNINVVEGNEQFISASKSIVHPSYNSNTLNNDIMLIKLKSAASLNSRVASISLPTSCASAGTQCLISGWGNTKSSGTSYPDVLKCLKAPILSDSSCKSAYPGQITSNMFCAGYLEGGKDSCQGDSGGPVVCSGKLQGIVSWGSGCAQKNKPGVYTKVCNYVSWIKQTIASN
Sequence of UniProt P20813 (whole entry, looked up): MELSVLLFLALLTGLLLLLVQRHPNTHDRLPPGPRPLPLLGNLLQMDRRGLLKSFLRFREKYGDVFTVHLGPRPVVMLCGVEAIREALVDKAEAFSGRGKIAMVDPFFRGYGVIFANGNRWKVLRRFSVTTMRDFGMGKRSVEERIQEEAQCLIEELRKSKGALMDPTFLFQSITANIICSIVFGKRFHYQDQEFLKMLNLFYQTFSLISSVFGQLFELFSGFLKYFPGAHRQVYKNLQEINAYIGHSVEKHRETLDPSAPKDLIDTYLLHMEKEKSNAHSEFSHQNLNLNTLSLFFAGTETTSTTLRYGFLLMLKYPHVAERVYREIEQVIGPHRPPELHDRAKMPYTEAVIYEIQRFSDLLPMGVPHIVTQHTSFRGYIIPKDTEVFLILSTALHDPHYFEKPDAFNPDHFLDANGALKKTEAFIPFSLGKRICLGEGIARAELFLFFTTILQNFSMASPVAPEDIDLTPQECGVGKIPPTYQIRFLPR
Sequence of UniProt Q9CPV9 (whole entry, looked up): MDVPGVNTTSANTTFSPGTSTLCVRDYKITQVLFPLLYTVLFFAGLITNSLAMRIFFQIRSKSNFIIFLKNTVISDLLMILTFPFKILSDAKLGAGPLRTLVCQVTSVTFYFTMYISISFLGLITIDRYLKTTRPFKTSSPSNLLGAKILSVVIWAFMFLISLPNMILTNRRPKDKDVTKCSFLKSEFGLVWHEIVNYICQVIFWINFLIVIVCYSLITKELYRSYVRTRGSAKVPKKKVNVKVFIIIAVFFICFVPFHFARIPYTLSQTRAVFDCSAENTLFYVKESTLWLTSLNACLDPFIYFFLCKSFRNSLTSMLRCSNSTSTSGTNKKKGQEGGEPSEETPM
Sequence of UniProt P11980 (whole entry, looked up): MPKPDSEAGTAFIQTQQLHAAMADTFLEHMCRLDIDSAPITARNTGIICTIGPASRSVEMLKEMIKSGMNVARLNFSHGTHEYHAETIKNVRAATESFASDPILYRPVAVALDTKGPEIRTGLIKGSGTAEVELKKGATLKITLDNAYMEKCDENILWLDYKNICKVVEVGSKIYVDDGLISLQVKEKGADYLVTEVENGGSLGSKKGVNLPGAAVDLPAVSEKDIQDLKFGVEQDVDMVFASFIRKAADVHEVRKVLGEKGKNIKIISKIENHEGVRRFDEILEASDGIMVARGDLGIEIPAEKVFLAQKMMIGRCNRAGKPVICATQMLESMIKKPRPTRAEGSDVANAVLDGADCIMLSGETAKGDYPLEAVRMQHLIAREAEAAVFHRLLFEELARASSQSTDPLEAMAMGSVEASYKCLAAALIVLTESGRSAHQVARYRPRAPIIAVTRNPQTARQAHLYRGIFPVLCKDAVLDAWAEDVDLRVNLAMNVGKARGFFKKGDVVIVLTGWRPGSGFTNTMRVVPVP
Sequence of UniProt P16257 (whole entry, looked up): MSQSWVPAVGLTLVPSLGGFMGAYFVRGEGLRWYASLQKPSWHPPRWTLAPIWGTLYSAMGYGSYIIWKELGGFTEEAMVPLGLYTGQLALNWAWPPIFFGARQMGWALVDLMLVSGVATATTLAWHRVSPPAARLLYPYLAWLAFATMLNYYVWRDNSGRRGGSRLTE
Sequence of UniProt P10635 (whole entry, looked up): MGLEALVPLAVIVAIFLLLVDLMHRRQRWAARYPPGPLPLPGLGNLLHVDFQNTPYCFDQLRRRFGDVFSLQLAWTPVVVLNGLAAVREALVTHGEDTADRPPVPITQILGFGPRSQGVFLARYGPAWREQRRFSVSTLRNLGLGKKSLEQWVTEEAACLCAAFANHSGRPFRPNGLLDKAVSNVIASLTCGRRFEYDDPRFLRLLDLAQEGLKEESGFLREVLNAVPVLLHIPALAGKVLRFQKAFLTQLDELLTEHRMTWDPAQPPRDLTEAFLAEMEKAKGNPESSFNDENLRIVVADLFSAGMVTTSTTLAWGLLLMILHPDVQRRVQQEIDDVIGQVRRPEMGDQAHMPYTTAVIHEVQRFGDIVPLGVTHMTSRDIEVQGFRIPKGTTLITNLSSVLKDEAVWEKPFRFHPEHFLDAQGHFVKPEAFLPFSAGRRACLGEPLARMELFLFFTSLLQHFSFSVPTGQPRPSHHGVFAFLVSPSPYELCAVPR

SMILES | target | test | system | setting | how to read | quantity | value
CCc1nc(N)nc(N)c1C#CC(C)c1cc(-c2cc(C)nc(C)c2)ccc1OC (racemic) | Cytochrome P450 2D6 (CYP2D6, Homo sapiens, UniProt P10635) | enzyme activity, inhibitor, fluorescence | – | – | – | IC50 | 12.9 µM
COc1cc(-c2nc3ccccc3s2)cc(CN(Cc2ccccn2)Cc2ccccn2)c1O | Cu2+ | UV-vis pH titration | – | M2+ + L- = [ML]+ complex | – | log K | 22
Cc1cc(O)cc(O)c1C(=O)c1c2c3c(c(O)cc(C)c3oc1=O)C(=O)c1c(O)cc(O)cc1-2 | KCNH2 | potassium current, inhibitor | HEK293 | 5 µM, pH 7.4 | – | inhibition | 3.8 ± 4%
CNC(=O)c1ccc(N2CCN(Cc3ccc4nc(C)c(=O)[nH]c4c3F)CC2)c([18F])n1 | Poly [ADP-ribose] polymerase 1 (Macaca mulatta, UniProt H9FQ77) | PET | male rhesus monkeys, caudate nucleus | intravenous, dose not given, baseline | – | radioactivity uptake | 0.88 SUV
CC[C@H](C)[C@@H]1NC(=O)[C@H](Cc2c[nH]c3ccccc23)NC(=O)[C@H](CCCN)NC(=O)CNC(=O)[C@H]2CCCN2C(=O)[C@H](C(C)C)NC(=O)[C@H](CCCCN)NC(=O)[C@H](C(C)C)NC(=O)[C@@H](NC(=O)[C@H](CCCNC(=N)N)NC(C)=O)CCCCn2cc(nn2)C[C@@H](C(=O)N[C@@H](CCC(N)=O)C(N)=O)NC1=O | Serine protease 1 (PRSS1, Bos taurus, UniProt P00760) | substrate | – | pH 7.6, 37 °C | relative to: cyclic over non-cyclic peptide | half-life ratio | 4
COc1cc(-c2nc3ccccc3s2)cc(CN(C)Cc2ccccn2)c1O | Cu2+ | UV-vis pH titration | – | M2+ + HL = [MHL]+ complex | – | log K | 5.3
C/C=C/C[C@@H](C)[C@@H](O)[C@H]1C(=O)N[C@@H](CC)C(=O)N(C)C(Cc2ccc(C(=O)NCCCCCCNC(=O)CCCCC[P+](c3ccccc3)(c3ccccc3)c3ccccc3)cc2)C(=O)N(C)[C@@H](CC(C)C)C(=O)N[C@@H](C(C)C)C(=O)N(C)[C@@H](CC(C)C)C(=O)N[C@@H](C)C(=O)N[C@H](C)C(=O)N(C)[C@@H](CC(C)C)C(=O)N(C)[C@@H](CC(C)C)C(=O)N(C)[C@@H](C(C)C)C(=O)N1C (some centres unmarked) | calcineurin | phosphatase activity, phosphate release | – | 720 nM, together with: complex with cyclophilin A | – | inhibition | -5%
[64Cu+2].c1ccc(CNCc2ccc(CN3CCCN4CCNCCCN(CC4)CC3)cc2)nc1 | CXCR4 | – | NOD/SCID mouse, U87 xenografts, small intestine | 90 min | – | tissue uptake | 3.7 ± 0.25 %ID/g
C=C1CCC(O)CC1=CC=C1CCCC2(C)C1CCC2C(C)(O)CCCCCC (centres unmarked) | CYP27A1 | substrate | – | 50 µM, 3 h, 0.45% cyclodextrin, 1 µM enzyme | – | number of products | 5
CC(C)C[C@H](NC(=O)[C@@H]1CCCN1C(=O)[C@H](CCCCNC(=O)CN1CCN(CC(=O)O)CCN(CC(=O)O)CCN(CC(=O)O)CC1)NC(=O)CC[C@@H]1NC(=O)[C@@H](Cc2ccccc2)NC(=O)[C@H](CC(=O)O)NC(=O)CNC(=O)[C@H](CCCNC(=N)N)NC1=O)C(=O)NCC(=O)O [copper-64 labelled] | MMP2 | substrate, radio-HPLC | – | – | – | peptide cleavage | no effect
C=C1CCC(O)CC1=CC=C1CCCC2(C)C1CCC2C(C)(O)c1ccccc1 (centres unmarked) | CYP27A1 | substrate | – | 50 µM, 3 h, 0.45% cyclodextrin, 1 µM enzyme | – | substrate conversion | 0%
C=CC(=O)Nc1cc(Nc2nccc(-c3cn(C)c4ccccc34)n2)c(OCC(F)(F)F)nc1N(C)CCN(C)C | Cytochrome P450 2B6 (CYP2B6, Homo sapiens, UniProt P20813) | enzyme activity, inhibitor | human, liver microsomes | 33.3 µM | – | activity vs control | 95.8%
[64Cu+2].c1cnc(CNCc2ccc(CN3CCCN4CCNCCCN(CC4)CC3)cc2)nc1 | CXCR4 (human) | – | NOD/SCID mice, U87 xenografts, U87 control tumour | 120 min post-injection | – | tissue uptake | 6.49 ± 0.6 %ID/g
COc1cc2c(CCNC(C)=O)c[nH]c2cc1OS(=O)(=O)O | Abcg2 (mouse) | – | FVB/N Abcg2-/- male mice, small intestine | oral, 10 mg/kg melatonin, 1 h | – | concentration | 1270 ± 650 ng/g
CCN1/C(=C/C=C2\CCCC(/C=C/C3=[N+](CC)c4ccccc4C3(C)C)=C2NCCCCCCCCN2CCC(Nc3nc4ccccc4n3Cc3ccc(F)cc3)CC2)C(C)(C)c2ccccc21 | KCNH2 | ligand displacement, radioligand | HEK293 | 80 min, cell membranes | – | IC50 | 0.00362 µM
CC(=O)N[C@@H](CCCCN)C(=O)N[C@@H](CCCCN)C(=O)N[C@@H](CO)C(=O)N[C@@H](CC(C)C)C(=O)N[C@@H](CO)C(=O)N[C@@H](CC(C)C)C(=O)N[C@@H](CO)C(=O)N[C@@H](CC(C)C)C(=O)N[C@@H](CO)C(=O)N[C@@H](CC(C)C)C(=O)N[C@@H](CO)C(=O)N[C@@H](CC(C)C)C(=O)N[C@@H](CO)C(=O)N[C@@H](CC(C)C)C(=O)N[C@@H](CCCCN)C(=O)N[C@@H](CCCCN)C(N)=O | MMP2 | – | – | 10 mg/mL, 48 h, 37 °C, together with: MMP2 100 ng | – | hydrogel degradation | no effect
COC(=O)CC[C@@H](NC(=O)[C@@H](Cc1ccc(OP(=O)(O)O)cc1)NC(=O)[C@@H](Cc1ccccc1)NC(=O)[C@@H](Cc1ccccc1)NC(=O)Cc1ccc2ccccc2c1)C(=O)OC | carboxylesterase | substrate | HS5 | 200 µM, 24 h | – | ester hydrolysis | 9.7%
CCc1cc(C)n2nc(-c3ccc(OCC[18F])cc3)c(CC(=O)N(CC)CC)c2n1 | Translocator protein (Tspo, Rattus norvegicus, UniProt P16257) | Logan plot analysis | rat C6 glioma model, brain | dose not given, 60 min dynamic PET | – | total distribution volume | 3.53 ± 1.27 mL/cm3
CCC(=O)N(C)c1ccc(Cl)c(Cl)c1 | KCNH2 | ion current, inhibitor, patch clamp | HEK293 | 1 µM | – | inhibition | 1.44%
C/C=C/C[C@@H](C)[C@@H](O)[C@H]1C(=O)N[C@@H](CC)C(=O)N(C)C(Cc2ccc(C(=O)NCCOCCNC(=O)CC[P+](c3ccccc3)(c3ccccc3)c3ccccc3)cc2)C(=O)N(C)[C@@H](CC(C)C)C(=O)N[C@@H](C(C)C)C(=O)N(C)[C@@H](CC(C)C)C(=O)N[C@@H](C)C(=O)N[C@H](C)C(=O)N(C)[C@@H](CC(C)C)C(=O)N(C)[C@@H](CC(C)C)C(=O)N(C)[C@@H](C(C)C)C(=O)N1C (some centres unmarked) | calcineurin | phosphatase activity, phosphate release | – | 720 nM, together with: complex with cyclophilin A | – | inhibition | 4%
Cc1cccc(C)c1NC(=O)CC(C)NCc1cccc2ccccc12 (centres unmarked) | KCNH2 | tail current inhibition, patch clamp | tsA201 transfected with KCNH2 | 0.2% DMSO | – | Hill coefficient | 0.77 ± 0.13
Cc1cccc(Cn2ncc3c4cc(F)c(CN(C)C)cc4n(C)c3c2=O)n1 | Pyruvate kinase PKM (Rattus norvegicus, UniProt P11980) | enzyme activity, activator | rat, retina | intravitreal, 1 µM vitreous concentration | – | half-life of slow phase | 45.6 days
N#Cc1cc(C(=O)OCC[18F])c(C(F)(F)F)nc1N1CCN(C(=O)Cc2ccccc2)CC1 | P2Y purinoceptor 12 (P2ry12, Mus musculus, UniProt Q9CPV9) | PET | aged mouse, 40 weeks, brain | 11.1 MBq, 60 min | – | SUV | 0.52 ± 0.04

Some of these lines once more:
SMILES | target | test | system | setting | how to read | quantity | value
COc1cc2c(CCNC(C)=O)c[nH]c2cc1OS(=O)(=O)O | Abcg2 (mouse) | – | FVB/N Abcg2-/- male mice, small intestine | oral, 10 mg/kg melatonin, 1 h | – | concentration | 1270 ± 650 ng/g
